# Assay results gathered from unrelated publications.
# A part holds a random share of what one study measured.
# UniProt P49137, sequence (whole entry, looked up): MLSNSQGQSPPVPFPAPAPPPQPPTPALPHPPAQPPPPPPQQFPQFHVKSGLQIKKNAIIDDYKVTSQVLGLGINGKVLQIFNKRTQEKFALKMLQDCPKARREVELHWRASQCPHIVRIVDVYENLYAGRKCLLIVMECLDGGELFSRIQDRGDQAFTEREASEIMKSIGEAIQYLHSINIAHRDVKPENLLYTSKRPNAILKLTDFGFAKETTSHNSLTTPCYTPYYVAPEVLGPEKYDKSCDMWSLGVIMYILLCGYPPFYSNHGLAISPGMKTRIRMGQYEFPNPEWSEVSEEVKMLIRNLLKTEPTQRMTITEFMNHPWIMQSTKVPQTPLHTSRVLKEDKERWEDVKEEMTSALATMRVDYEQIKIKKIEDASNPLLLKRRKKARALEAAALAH
# UniProt O75582, sequence (whole entry, looked up): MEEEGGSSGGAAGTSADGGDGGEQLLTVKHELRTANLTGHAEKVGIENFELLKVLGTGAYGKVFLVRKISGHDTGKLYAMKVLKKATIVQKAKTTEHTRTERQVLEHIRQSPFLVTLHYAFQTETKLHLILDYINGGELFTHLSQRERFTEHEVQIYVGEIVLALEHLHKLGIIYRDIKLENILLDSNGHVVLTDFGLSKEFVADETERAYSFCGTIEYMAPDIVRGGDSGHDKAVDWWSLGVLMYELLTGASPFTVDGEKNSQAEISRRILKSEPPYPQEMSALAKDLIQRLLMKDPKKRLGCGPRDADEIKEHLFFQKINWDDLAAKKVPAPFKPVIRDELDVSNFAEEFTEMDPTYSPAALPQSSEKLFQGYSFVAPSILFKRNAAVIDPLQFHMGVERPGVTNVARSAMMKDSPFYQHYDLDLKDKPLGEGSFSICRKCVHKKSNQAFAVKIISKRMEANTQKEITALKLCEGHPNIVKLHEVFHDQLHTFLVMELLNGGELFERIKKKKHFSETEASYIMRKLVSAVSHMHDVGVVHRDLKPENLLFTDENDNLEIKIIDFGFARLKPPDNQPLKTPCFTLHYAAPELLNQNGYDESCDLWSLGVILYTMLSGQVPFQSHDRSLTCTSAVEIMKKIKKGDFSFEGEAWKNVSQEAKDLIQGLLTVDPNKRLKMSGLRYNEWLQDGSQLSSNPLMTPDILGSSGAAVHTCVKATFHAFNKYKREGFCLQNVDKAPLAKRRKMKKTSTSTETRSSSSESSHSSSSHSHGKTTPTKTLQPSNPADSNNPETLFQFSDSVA
# UniProt O95382, sequence (whole entry, looked up): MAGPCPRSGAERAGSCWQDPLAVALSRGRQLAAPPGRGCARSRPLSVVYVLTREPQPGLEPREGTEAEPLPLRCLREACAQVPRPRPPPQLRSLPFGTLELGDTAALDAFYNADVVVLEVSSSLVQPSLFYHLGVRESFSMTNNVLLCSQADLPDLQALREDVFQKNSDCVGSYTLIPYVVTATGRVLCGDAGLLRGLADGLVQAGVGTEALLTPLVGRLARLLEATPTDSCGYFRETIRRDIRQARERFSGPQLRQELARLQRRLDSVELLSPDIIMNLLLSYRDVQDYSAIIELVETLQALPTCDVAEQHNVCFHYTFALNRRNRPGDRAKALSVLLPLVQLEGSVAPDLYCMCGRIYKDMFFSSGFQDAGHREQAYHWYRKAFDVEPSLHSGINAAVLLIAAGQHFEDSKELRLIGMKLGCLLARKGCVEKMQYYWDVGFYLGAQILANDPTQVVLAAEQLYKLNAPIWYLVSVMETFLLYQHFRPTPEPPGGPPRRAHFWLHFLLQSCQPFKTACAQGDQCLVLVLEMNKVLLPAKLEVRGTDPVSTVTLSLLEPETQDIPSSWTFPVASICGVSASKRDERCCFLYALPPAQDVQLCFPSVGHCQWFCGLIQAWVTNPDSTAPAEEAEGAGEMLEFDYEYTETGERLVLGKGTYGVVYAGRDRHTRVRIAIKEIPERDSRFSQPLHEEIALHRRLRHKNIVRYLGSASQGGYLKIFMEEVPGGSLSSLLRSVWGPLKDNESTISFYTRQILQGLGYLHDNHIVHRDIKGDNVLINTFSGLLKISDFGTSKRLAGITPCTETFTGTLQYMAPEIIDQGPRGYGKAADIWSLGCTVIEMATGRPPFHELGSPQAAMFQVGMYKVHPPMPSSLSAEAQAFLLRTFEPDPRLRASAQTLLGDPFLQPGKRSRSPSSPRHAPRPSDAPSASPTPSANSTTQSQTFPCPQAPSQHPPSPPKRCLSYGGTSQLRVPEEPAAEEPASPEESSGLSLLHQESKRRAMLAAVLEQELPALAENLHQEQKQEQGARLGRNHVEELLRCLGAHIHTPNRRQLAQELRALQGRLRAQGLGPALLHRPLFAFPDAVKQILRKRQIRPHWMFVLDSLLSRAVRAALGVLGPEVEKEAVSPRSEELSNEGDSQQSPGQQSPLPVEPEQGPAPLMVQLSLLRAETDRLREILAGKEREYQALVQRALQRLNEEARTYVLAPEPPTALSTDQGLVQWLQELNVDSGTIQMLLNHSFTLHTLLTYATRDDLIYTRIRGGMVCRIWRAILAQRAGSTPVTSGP
# UniProt O43683, sequence (whole entry, looked up): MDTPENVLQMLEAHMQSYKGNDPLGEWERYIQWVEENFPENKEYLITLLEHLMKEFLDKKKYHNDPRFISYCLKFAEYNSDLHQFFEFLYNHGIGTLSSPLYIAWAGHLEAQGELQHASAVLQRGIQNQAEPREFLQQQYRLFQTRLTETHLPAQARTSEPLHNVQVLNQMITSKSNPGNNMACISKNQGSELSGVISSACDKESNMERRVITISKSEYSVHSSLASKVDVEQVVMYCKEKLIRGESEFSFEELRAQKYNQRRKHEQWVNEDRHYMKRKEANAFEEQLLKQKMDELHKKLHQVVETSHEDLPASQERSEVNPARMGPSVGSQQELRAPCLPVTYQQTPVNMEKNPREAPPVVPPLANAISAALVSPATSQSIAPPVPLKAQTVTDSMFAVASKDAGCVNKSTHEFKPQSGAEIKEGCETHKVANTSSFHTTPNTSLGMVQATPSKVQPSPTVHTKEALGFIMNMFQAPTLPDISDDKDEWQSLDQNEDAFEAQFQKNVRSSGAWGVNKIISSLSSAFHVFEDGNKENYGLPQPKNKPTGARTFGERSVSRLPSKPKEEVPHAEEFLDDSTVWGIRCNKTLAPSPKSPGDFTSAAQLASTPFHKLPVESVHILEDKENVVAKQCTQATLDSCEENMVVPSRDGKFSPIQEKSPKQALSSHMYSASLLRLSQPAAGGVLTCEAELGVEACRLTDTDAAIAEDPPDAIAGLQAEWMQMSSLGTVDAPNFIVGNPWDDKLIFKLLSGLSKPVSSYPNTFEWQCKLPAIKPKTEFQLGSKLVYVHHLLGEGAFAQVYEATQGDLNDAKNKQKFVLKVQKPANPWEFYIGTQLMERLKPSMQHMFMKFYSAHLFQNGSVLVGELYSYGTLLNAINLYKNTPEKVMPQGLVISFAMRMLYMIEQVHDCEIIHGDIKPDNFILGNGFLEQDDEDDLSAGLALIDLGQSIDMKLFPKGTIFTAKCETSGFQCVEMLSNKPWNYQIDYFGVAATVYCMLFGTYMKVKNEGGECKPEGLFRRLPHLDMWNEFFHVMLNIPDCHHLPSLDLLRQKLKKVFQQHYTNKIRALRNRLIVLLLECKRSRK
# UniProt P11802, sequence (whole entry, looked up): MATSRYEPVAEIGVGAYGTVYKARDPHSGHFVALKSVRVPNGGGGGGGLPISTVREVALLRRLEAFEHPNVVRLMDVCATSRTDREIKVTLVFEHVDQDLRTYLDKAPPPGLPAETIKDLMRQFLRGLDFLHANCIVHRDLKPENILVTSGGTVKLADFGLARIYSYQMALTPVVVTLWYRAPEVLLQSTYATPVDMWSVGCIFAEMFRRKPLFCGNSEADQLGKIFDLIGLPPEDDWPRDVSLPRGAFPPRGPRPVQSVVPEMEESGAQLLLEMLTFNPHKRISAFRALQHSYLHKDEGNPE
# UniProt O43781, sequence (whole entry, looked up): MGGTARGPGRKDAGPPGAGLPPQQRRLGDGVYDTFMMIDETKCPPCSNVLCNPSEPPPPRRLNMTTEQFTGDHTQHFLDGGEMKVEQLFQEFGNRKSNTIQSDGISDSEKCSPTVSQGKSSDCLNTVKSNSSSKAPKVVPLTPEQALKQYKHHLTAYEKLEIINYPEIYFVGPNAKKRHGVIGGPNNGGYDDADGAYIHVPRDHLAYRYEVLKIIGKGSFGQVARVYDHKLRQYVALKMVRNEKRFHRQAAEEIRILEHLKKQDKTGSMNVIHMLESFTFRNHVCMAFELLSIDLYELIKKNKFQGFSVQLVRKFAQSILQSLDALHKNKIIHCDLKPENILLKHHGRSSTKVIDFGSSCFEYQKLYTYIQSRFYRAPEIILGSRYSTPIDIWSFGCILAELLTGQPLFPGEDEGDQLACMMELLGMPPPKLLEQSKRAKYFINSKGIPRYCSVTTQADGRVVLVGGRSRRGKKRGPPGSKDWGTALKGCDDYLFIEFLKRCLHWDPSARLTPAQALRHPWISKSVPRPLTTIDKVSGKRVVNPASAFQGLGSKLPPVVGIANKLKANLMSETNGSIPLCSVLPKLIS
# UniProt P27037, sequence (whole entry, looked up): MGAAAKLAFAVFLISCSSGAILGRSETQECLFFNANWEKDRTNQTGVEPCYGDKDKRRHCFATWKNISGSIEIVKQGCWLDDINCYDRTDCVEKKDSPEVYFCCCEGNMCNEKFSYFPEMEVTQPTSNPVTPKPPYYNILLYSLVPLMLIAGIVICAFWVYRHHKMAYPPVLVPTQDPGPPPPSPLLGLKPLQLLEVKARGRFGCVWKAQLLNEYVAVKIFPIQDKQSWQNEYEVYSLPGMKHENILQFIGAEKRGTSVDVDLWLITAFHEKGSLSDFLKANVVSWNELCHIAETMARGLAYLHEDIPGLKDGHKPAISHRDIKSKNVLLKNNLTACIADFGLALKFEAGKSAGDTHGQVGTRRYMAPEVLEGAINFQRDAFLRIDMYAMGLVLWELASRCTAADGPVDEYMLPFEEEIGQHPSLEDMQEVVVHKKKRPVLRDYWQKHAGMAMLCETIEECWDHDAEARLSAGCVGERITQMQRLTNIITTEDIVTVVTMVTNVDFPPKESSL

# Sample 1
# Organism: Sarcocystis neurona
# Observed: parasite growth
# Concentration: 10 µM
# Time: 96 h
# Relative to: untreated
SMILES,log2 fold change
CC(=O)/N=c1/sc(S(N)(=O)=O)nn1C,0.25
CC(=O)[C@@]1(O)CC[C@H]2[C@@H]3C[C@H](C)C4=CC(=O)C=C[C@]4(C)[C@@]3(F)[C@@H](O)C[C@@]21C,0.43
COc1ccnc(C[S+]([O-])c2nc3ccc(OC(F)F)cc3[nH]2)c1OC (stereo not shown),0.53
Cc1c2oc3c(C)ccc(C(=O)N[C@@H]4C(=O)N[C@H](C(C)C)C(=O)N5CCC[C@H]5C(=O)N(C)CC(=O)N(C)[C@@H](C(C)C)C(=O)O[C@@H]4C)c3nc-2c(C(=O)N[C@@H]2C(=O)N[C@H](C(C)C)C(=O)N3CCC[C@H]3C(=O)N(C)CC(=O)N(C)[C@@H](C(C)C)C(=O)O[C@@H]2C)c(N)c1=O,-0.18
CC[C@]1(O)C[C@@H]2CN(CCc3c([nH]c4ccccc34)[C@@](C(=O)OC)(c3cc4c(cc3OC)N(C)[C@H]3[C@@](O)(C(N)=O)[C@H](O)[C@]5(CC)C=CCN6CC[C@]43[C@@H]65)C2)C1,-0.16

# Sample 2
# Structure (SMILES): O=C(NCc1ncc(C(F)(F)F)cc1Cl)c1ccc2c(c1)C1(CCS(=O)(=O)CC1)[C@H](C1CC1)N2S(=O)(=O)c1ccc(F)cc1
# Method: competition with immobilised ligand
# Concentration: 1 µM
target,assay,remaining binding [%]
"MAPKAPK2 (Homo sapiens, UniProt P49137)",cell-free assay,100
"NEK4 (Homo sapiens, UniProt P51957)",cell-free assay,99
"ACVR2A (Homo sapiens, UniProt P27037)",cell-free assay,86
"MAP4K3 (Homo sapiens, UniProt Q8IVH8)",cell-free assay,100
"BUB1 (Homo sapiens, UniProt O43683)",cell-free assay,68
"CDK13 (Homo sapiens, UniProt Q14004)",cell-free assay,88
"Tyrosine-protein kinase ABL1, phosphorylated (ABL1, Homo sapiens, UniProt P00519, E255K)",binding,80
"MAP3K6 (Homo sapiens, UniProt O95382)",cell-free assay,83
"PRKX (Homo sapiens, UniProt P51817)",cell-free assay,88

# Sample 3
# Cell line: A-375
# Concentration: 100 µM
# Time: 18 h
Structure (SMILES),viability [%]
S=C1SCN(Cc2ccccc2)CN1Cc1ccccc1,108
CCCN[C@H]1CCc2nc(N)sc2C1,106
CC1(C)S[C@@H]2[C@H](NC(=O)COc3ccccc3)C(=O)N2[C@H]1C(=O)O,103
Cc1ccsc1C(=CCCN1CCC[C@@H](C(=O)O)C1)c1sccc1C,102
OCC(O)CN1CCN(c2ccccc2)CC1 (stereo not shown),75.3

# Sample 4
# SMILES: Cc1cc(Nc2nc(-c3ccccc3)nc3ccccc23)n[nH]1
# Observed: enzyme activity
# Mode: inhibitor
# Concentration: 0.5 µM
# Relative to: control
target,remaining activity [%]
"BLK (Homo sapiens, UniProt P51451)",56.2
"DYRK3 (Homo sapiens, UniProt O43781)",81.9
"SRMS (Homo sapiens, UniProt Q9H3Y6)",98.7
"RPS6KA5 (Homo sapiens, UniProt O75582)",70.5
"STK16 (Homo sapiens, UniProt O75716)",24.7
"Cyclin-dependent kinase 4, with cyclin D3 (CDK4, Homo sapiens, UniProt P11802)",94.4

# Excerpt of the above (sample 3):
Structure (SMILES),viability [%]
CCCN[C@H]1CCc2nc(N)sc2C1,106
CC1(C)S[C@@H]2[C@H](NC(=O)COc3ccccc3)C(=O)N2[C@H]1C(=O)O,103
